Results of several laboratories.
Protocols differ between the studies behind these lines.
Technique: steady-state kinetics
B1: BaiA1 (Clostridium scindens, UniProt P07914); chain MKLVQDKITIITGGTRGIGFAAAKLFIENGAKVSIFGETQEEVDTALAQLKELYPEEEVLGFAPDLTSRDAVMAAVGTVAQKYGRLDVMINNAGITMNSVFSRVSEEDFKNIMDINVNGVFNGAWSAYQCMKDAKQGVIINTASVTGIYGSLSGIGYPTSKAGVIGLTHGLGREIIRKNIRVVGVAPGVVDTDMTKGLPPEILEDYLKTLPMKRMLKPEEIANVYLFLASDLASGITATTISVDGAYRP
B2: YdjH (Escherichia coli, UniProt P77493); chain MDNLDVICIGAAIVDIPLQPVSKNIFDVDSYPLERIAMTTGGDAINEATIISRLGHRTALMSRIGKDAAGQFILDHCRKENIDIQSLKQDVSIDTSINVGLVTEDGERTFVTNRNGSLWKLNIDDVDFARFSQAKLLSLASIFNSPLLDGKALTEIFTQAKARQMIICADMIKPRLNETLDDICEALSYVDYLFPNFAEAKLLTGKETLDEIADCFLACGVKTVVIKTGKDGCFIKRGDMTMKVPAVAGITAIDTIGAGDNFASGFIAALLEGKNLRECARFANATAAISVLSVGATTGVKNRKLVEQLLEEYEG
B3: LigI D246A (Sphingobium sp. SYK-6, UniProt O87170); chain TNDERILSWNETPSKPRYTPPPGAIDAHCHVFGPMAQFPFSPKAKYLPRDAGPDMLFALRDHLGFARNVIVQASCHGTDNAATLDAIARAQGKARGIAVVDPAIDEAELAALHEGGMRGIRFNFLKRLVDDAPKDKFLEVAGRLPAGWHVVIYFEADILEELRPFMDAIPVPIVIDHMGRPDVRQGPDGADMKAFRRLLDSREDIWFKATCPDRLDPAGPPWDDFARSVAPLVADYADRVIWGTAWPHPNMQDAIPDDGLVVDMIPRIAPTPELQHKMLVTNPMRLYWSEEM
B4: aromatic amino acid decarboxylase (Bacillus atrophaeus, UniProt I0DFJ0); chain MSENLQLSAEEMRQLGYQAVDLIIDHMNHLKSKPVSETIDSDILRNKLTESIPENGSDPKELLHFLNRNVFNQITHVDHPHFLAFVPGPNNYVGVVADFLASGFNVFPTAWIAGAGAEQIELTTINWLKSMLGFPDSAEGLFVSGGSMANLTALTVARQAKLNNDIENAVVYFSDQTHFSVDRALKVLGFKHHQICRIETDEHLRISVSALKKQIKEDRTKGKKPFCVIANAGTTNCGAVDSLNELADLCNDEDVWLHADGSYGAPAILSEKGSAMLQGIHRADSLTLDPHKWLFQPYDVGCVLIRNSQYLSKTFRMMPEYIKDSETNVEGEINFGECGIELSRRFRALKVWLSFKVFGVAAFRQAIDHGIMLAEQVEAFLGKAKDWEVVTPAQLGIVTFRYIPSELASTDTINEINKKLVKEITHRGFAMLSTTELKEKVVIRLCSINPRTTTEEMLQIMMKIKALAEEVSISYPCVAE
B5: protein (Listeria innocua, UniProt A0ACH1DCV7); chain MESLELEQLVKKVLLEKLAEQKEVPTKTTTQGAKSGVFDTVDEAVQAAVIAQNCYKEKSLEERRNVVKAIREALYPEIETIATRAVAETGMGNVTDKILKNTLAIEKTPGVEDLYTEVATGDNGMTLYELSPYGVIGAVAPSTNPTETLICNSIGMLAAGNAVFYSPHPGAKNISLWLIEKLNTIVRDSCGIDNLIVTVAKPSIQAAQEMMNHPKVPLLVITGGPGVVLQAMQSGKKVIGAGAGNPPSIVDETANIEKAAADIVDGASFDHNILCIAEKSVVAVDSIADFLLFQMEKNGALHVTNPSDIQKLEKVAVTDKGVTNKKLVGKSATEILKEAGIACDFTPRLIIVETEKSHPFATVELLMPIVPVVRVPDFDEALEVAIELEQGLHHTATMHSQNISRLNKAARDMQTSIFVKNGPSFAGLGFRGEGSTTFTIATPTGEGTTTARHFARRRRCVLTDGFSIR
B6: focA (Escherichia coli, UniProt P0AC23); chain MKADNPFDLLLPAAMAKVAEEAGVYKATKHPLKTFYLAITAGVFISIAFVFYITATTGTGTMPFGMAKLVGGICFSLGLILCVVCGADLFTSTVLIVVAKASGRITWGQLAKNWLNVYFGNLVGALLFVLLMWLSGEYMTANGQWGLNVLQTADHKVHHTFIEAVCLGILANLMVCLAVWMSYSGRSLMDKAFIMVLPVAMFVASGFEHSIANMFMIPMGIVIRDFASPEFWTAVGSAPENFSHLTVMNFITDNLIPVTIGNIIGGGLLVGLTYWVIYLRENDHH
B7: Pck1 A467G (Rattus norvegicus, UniProt P07379); chain MPPQLHNGLDFSAKVIQGSLDSLPQEVRKFVEGNAQLCQPEYIHICDGSEEEYGRLLAHMQEEGVIRKLKKYDNCWLALTDPRDVARIESKTVIITQEQRDTVPIPKSGQSQLGRWMSEEDFEKAFNARFPGCMKGRTMYVIPFSMGPLGSPLAKIGIELTDSPYVVASMRIMTRMGTSVLEALGDGEFIKCLHSVGCPLPLKKPLVNNWACNPELTLIAHLPDRREIISFGSGYGGNSLLGKKCFALRIASRLAKEEGWLAEHMLILGITNPEGKKKYLAAAFPSACGKTNLAMMNPTLPGWKVECVGDDIAWMKFDAQGNLRAINPENGFFGVAPGTSVKTNPNAIKTIQKNTIFTNVAETSDGGVYWEGIDEPLAPGVTITSWKNKEWRPQDEEPCAHPNSRFCTPASQCPIIDPAWESPEGVPIEGIIFGGRRPAGVPLVYEALSWQHGVFVGAAMRSEATAGAEHKGKVIMHDPFAMRPFFGYNFGKYLAHWLSMAHRPAAKLPKIFHVNWFRKDKNGKFLWPGFGENSRVLEWMFGRIEGEDSAKLTPIGYVPKEDALNLKGLGDVNVEELFGISKEFWEKEVEEIDKYLEDQVNADLPYEIERELRALKQRISQM
B8: ST3GAL4 (Homo sapiens, UniProt Q11206); chain REDRYIELFYFPIPEKKEPCLQGEAESKASKLFGNYSRDQPIFLRLEDYFWVKTPSAYELPYGTKGSEDLLLRVLAITSSSIPKNIQSLRCRRCVVVGNGHRLRNSSLGDAINKYDVVIRLNNAPVAGYEGDVGSKTTMRLFYPESAHFDPKVENNPDTLLVLVAFKAMDFHWIETILSDKKRVRKGFWKQPPLIWDVNPKQIRILNPFFMEIAADKLLSLPMQQPRKIKQKPTTGLLAITLALHLCDLVHIAGFGYPDAYNKKQTIHYYEQITLKSMAGSGHNVSQEALAIKRMLEMGAIKNLTSF
B9: LYS1 C205S/K99M (Saccharomyces cerevisiae, UniProt P38998); chain MAAVTLHLRAETKPLEARAALTPTTVKKLIAKGFKIYVEDSPQSTFNINEYRQAGAIIVPAGSWKTAPRDRIIIGLKEMPETDTFPLVHEHIQFAHCYMDQAGWQNVLMRFIKGHGTLYDLEFLENDQGRRVAAFGFYAGFAGAALGVRDWAFKQTHSDDEDLPAVSPYPNEKALVKDVTKDYKEALATGARKPTVLIIGALGRSGSGAIDLLHKVGIPDANILKWDIKETSRGGPFDEIPQADIFINCIYLSKPIAPFTNMEKLNNPNRRLRTVVDVSADTTNPHNPIPIYTVATVFNKPTVLVPTTAGPKLSVISIDHLPSLLPREASEFFSHDLLPSLELLPQRKTAPVWVRAKKLFDRHCARVKRSSRL
B10: enzyme E385A (Sinorhizobium meliloti, UniProt Q92UV7); chain MTNAEVTIAVRHEPMRIAGRLVDTDDRVEVRYPWNDTVVGTVPAGRAEHAREAFAIAAAYQPKLTRYERQKILLATAEALAARKEEISDVITLELGISKADSLYEVGRAFDVFTLAGQMCIRDDGEIFSCDLTPHGKARKIFTMREPLTAISAITPFNHPLNMVAHKVAPAIATNNCVVVKPTELTPMTALLLADILYEAGLPPEMLSVVTGWPADIGMEMITNPHVDLVTFTGSVPVGKLIAANAHYKRQVLELGGNDPLIILNDLSDDDLARAADLAVAGATKNSGQRCTAVKRILCQESVADRFVPLVLERAKRLRFGDPMDRSTDLGTVIHEKAAALFEERVMRAAEEGADILYHPGRSGALLPPIVVDRVPHQSDLVLEATFGPIIPIVRVPDDDDATITLSNSTAFGLSSGVCTNDYRRMQKYIAGLKVGTVNIWEVPGYRIEMSPFGGIKDSGNGYKEGVIEAMKSFTNVKTFSLPWP
B11: UGT1A9 (Homo sapiens, UniProt O60656); chain GKLLVVPMDGSHWFTMRSVVEKLILRGHEVVVVMPEVSWQLGRSLNCTVKTYSTSYTLEDLDREFKAFAHAQWKAQVRSIYSLLMGSYNDIFDLFFSNCRSLFKDKKLVEYLKESSFDAVFLDPFDNCGLIVAKYFSLPSVVFARGILCHYLEEGAQCPAPLSYVPRILLGFSDAMTFKERVRNHIMHLEEHLLCHRFFKNALEIASEILQTPVTEYDLYSHTSIWLLRTDFVLDYPKPVMPNMIFIGGINCHQGKPLPMEFEAYINASGEHGIVVFSLGSMVSEIPEKKAMAIADALGKIPQTVLWRYTGTRPSNLANNTILVKWLPQNDLLGHPMTRAFITHAGSHGVYESICNGVPMVMMPLFGDQMDNAKRMETKGAGVTLNVLEMTSEDLENALKAVINDKSYKENIMRLSSLHKDRPVEPLDLAVFWVEFVMRHKGAPHLRPAAHDLTWYQYHSLDVIGFLLAVVLTVAFITFKCCAYGYRKCLGKKGRVKKAHKSKTH
Chain of UniProt P52895 (whole entry, looked up): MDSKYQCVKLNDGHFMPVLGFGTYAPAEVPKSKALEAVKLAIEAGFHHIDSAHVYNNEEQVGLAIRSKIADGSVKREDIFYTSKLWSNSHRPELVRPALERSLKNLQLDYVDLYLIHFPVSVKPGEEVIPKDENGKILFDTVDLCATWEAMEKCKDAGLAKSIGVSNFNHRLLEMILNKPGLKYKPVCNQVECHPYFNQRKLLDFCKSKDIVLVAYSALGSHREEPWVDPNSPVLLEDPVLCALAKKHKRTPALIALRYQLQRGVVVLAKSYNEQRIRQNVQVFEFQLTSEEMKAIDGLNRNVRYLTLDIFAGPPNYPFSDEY

enzyme (Burkholderia cepacia, UniProt P16932) — Km (CC(C)(N)C(=O)O; pH 7.4, 25 °C): 2500 µM
AKR1C2 (Homo sapiens, UniProt P52895) — Km (C=C1C[C@@H]2[C@H](CC[C@]3(C)C(=O)CC[C@@H]23)[C@@]2(C)C=CC(=O)C=C12; 37 °C): 16.4 µM
B1 (BaiA1) — Km (C[C@H](CCC(=O)SCCNC(=O)CCNC(=O)[C@H](O)C(C)(C)COP(=O)(O)OP(=O)(O)OC[C@H]1O[C@@H](n2cnc3c(N)ncnc32)[C@H](O)[C@@H]1OP(=O)(O)O)[C@H]1CC[C@H]2[C@@H]3CC[C@@H]4C[C@H](O)CC[C@]4(C)[C@H]3CC[C@]12C; pH 8.7, 37 °C, with: NAD+): 22 µM
B2 (YdjH) — Km (OC[C@H]1O[C@H](CO)[C@@H](O)[C@@H]1O; pH 7.4, 30 °C, KCl 100 mM, with: ATP 2.0 mM, MgCl2 5.0 mM): 44000 µM
putA (Bradyrhizobium diazoefficiens, UniProt Q89E26) — Km (O=C(O)[C@@H]1CCC=N1; pH 7.5, 23 °C): 420 µM
B3 (LigI D246A) — Km (O=C(O)c1cc(C(=O)O)oc(=O)c1; pH 8.25, 30 °C): 116 µM
B4 — Km (N[C@@H](Cc1c[nH]c2c(Br)cccc12)C(=O)O; pH 7, 37 °C, not purified, with: PLP 40 µM): 400 µM
enzyme (Acetivibrio thermocellus, UniProt A3DJ38) — Km (Nc1ncnc2c1ncn2[C@@H]1O[C@H](CO)[C@H]2OP(=O)(O)O[C@H]21; pH 7.5, 45 °C): 18000 µM
B5 (protein) — Km (CC=O; cell extract; not purified, with: CoA): 3900 µM
B6 (focA) — Km (O=CO; pH 6.8, 19 °C, apparent, not purified): 100000 µM
B7 (Pck1 A467G) — Km (Nc1nc2c(ncn2[C@@H]2O[C@H](COP(=O)(O)OP(=O)(O)O)[C@@H](O)[C@H]2O)c(=O)[nH]1; pH 7.5, 25 °C): 70 µM
B8 (ST3GAL4) — Km (CC(=O)N[C@H]1[C@H](O[C@H]2[C@@H](O)[C@@H](CO)O[C@@H](Oc3ccc([N+](=O)[O-])cc3)[C@@H]2O)O[C@H](CO)[C@@H](O[C@@H]2O[C@H](CO)[C@H](O)[C@H](O)[C@H]2O)[C@@H]1O; pH 6, with: CMP-Neu5Ac 0.5 mM): 140 µM
B9 (LYS1 C205S/K99M) — Km (NC(=O)C1=CN([C@@H]2O[C@H](COP(=O)(O)OP(=O)(O)OC[C@H]3O[C@@H](n4cnc5c(N)ncnc54)[C@H](O)[C@@H]3O)[C@@H](O)[C@H]2O)C=CC1; pH 7.2, 25 °C, with: Lys and α-Kg): 200 µM
LovD A190T/A86V/C40A/C60N/D12G/G275S/H161Y/K26E (Aspergillus terreus) — Km (CCC(C)(C)C(=O)SCCC(=O)OC; 25 °C, 10% DMSO, with: 2 mM MJA): 690 µM
pgmB (Lactococcus lactis, UniProt P71447) — Km (O=P(O)(O)OC[C@H]1O[C@@H](OP(=O)(O)O)[C@H](O)[C@@H](O)[C@@H]1O; pH 7, 25 °C): 0.63 µM
B10 (enzyme E385A) — Km (NC(=O)c1ccc[n+]([C@@H]2O[C@H](COP(=O)(O)OP(=O)(O)OC[C@H]3O[C@@H](n4cnc5c(N)ncnc54)[C@H](O)[C@@H]3O)[C@@H](O)[C@H]2O)c1; pH 7.5, 30 °C, cofactor varied): 370 µM
B11 (UGT1A9) — Km (Oc1ccc([C@H]2COc3cc(O)ccc3C2)cc1; pH 7.4, 37 °C): 213 µM

Some of these lines once more:
B1 (BaiA1) — Km (C[C@H](CCC(=O)SCCNC(=O)CCNC(=O)[C@H](O)C(C)(C)COP(=O)(O)OP(=O)(O)OC[C@H]1O[C@@H](n2cnc3c(N)ncnc32)[C@H](O)[C@@H]1OP(=O)(O)O)[C@H]1CC[C@H]2[C@@H]3CC[C@@H]4C[C@H](O)CC[C@]4(C)[C@H]3CC[C@]12C; pH 8.7, 37 °C, with: NAD+): 22 µM
